Measurements pooled from the literature.
Each numbered part is a random draw from the data of one study; scales do not carry over between parts. Substitutions count along the parent as printed.

Block 1
Target: CCNA1, cyclin fold, Cln2 fusion (human)
Technique: yeast growth competition, sequencing
Sample: yeast
Notes: weak parent motif
Reference: not given
Reading: higher = stronger binding
Quantity: normalised enrichment score
Parent: CDC25A docking peptide (human); PPHRRRLLFACSP; partner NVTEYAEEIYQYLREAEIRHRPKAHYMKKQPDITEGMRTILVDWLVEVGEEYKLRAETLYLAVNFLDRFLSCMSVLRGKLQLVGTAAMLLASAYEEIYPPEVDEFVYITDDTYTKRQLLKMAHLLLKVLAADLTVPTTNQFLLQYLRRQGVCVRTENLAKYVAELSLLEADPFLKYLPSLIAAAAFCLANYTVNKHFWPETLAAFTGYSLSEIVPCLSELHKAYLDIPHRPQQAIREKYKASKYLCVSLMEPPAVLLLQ
L7E: 0.315
H3C: 0.516
L7Y: 0.144
F9E: 0.424
P1E: 0.131

Block 2
Target: Histone acetyltransferase KAT6A, both winged helices, GST fusion (KAT6A, Homo sapiens, UniProt Q92794, residues 1-181)
Technique: protein binding microarray
Molecule type: double-stranded DNA, one strand shown
Sample: in vitro
Tested at: not given
Notes: 8-mer, flanks averaged, mean of 2 arrays, mostly near background
Reference: not given
Reading: higher = stronger binding
Quantity: E-score
Residues (chain): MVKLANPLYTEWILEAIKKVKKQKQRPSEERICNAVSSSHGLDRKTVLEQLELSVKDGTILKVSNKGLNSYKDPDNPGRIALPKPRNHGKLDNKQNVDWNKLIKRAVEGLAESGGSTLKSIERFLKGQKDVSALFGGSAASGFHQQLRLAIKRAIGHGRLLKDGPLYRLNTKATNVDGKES
AGCCAACC: 0.022
ATATCAGC: -0.0789
TCGAGGAA: -0.139
ACGGTGTA: 0.126
GAGGGTAA: -0.126

Block 3
Target: RNA binding protein fox-1 homolog 2, RRM domain, GST-SBP tag (RBFOX2, Homo sapiens, UniProt O43251-10, residues 100-194)
Technique: RNA Bind-n-Seq
Molecule type: RNA
Sample: in vitro
Tested at: 365 nM
Notes: natural RNA segment, single round, ends assumed
Reference: no-protein control
Reading: higher = stronger binding
Quantity: RBNS enrichment (R)
Shared flanks, not repeated: GGGAGUUCUACAGUCCGACGAUC … UGGAAUUCUCGGGUGCCAA
Construct (chain): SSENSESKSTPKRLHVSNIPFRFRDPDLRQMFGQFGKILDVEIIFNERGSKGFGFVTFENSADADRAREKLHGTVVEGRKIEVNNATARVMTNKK
ACUCGUGGCCAGACGGACAGCACUCCUGGCCAGAUGGACCCACCAGUAUCAGCGAGGAGGGGCUUGUCUCCUUCAGAGUUAACAUGGAGGACGAUUGGAGAAUCUCCCUG: 0.328
GUUGUGGUUUGUAGCAGGAAAGGACACUCCUGAUGUUGGGAAUUUGCAAGAAGAAUCUGGGCUGAGCUGCUUCAAACAAGGAGGCUUUGCUCUGGAGUGAGGAGGGAGUG: 1.42
GGAGUAAAAACUGCUUUAUAGCUCCCAAAUUAGGAAGAGAAGAGCAGAAAUCCUCUGGGGCAUUUAACCAUCUGGCAGAAUUGUUGCUGCACCCUUAUCCCAGUUAUAAG: 0.548
GAACAUGAAGAAAGAGCCUUUGGGAGAUUCCUGGCUUUCCAUUAGGGCUGAAAGUACAACGGUUCUUGGUUGGCUUUGCCUCGUGUUUAUAAAACUAGCUACUAUUCUUC: 0.773
CGGAUUAAUUUGCAUCUGAAAUAGGAAACAAGUGAAAGCAUAUGGGUUAGAUGUUGCCAUGUGUUUUAGAUGGUUUCUUGCAAGCAUGCUUGUGAAAAUGUGUUCUCGGA: 0.862
UUUUGGUAACUAAUGUUUUAUGGCACUUAAGAAUAAUUAGCAGCGUUAAAUUUUGUUUGUAUUAAGCACUUUUAAUUUUAUCCUUCCUAAAAAUAGUUUAUUGUAUCUGA: 12.5
UUCUAAAUAUACAAGGAAUUCUUUAAAUAGAGAAAAAGGUUAAUCCUCACUGAAACACCAGGAUGCCCACUGGAUAUACUAAUCUGAACAUCUGUAGGUAGUUUGUCAUG: 0.612
AGACAUCGAAAUAAUCACUUGUCAUGCAUUGACUGUAAAUGCAGAUAGAGAAAUAUGUCUUUGAAGCUCCACUUACACAAAAAUAAAACUUGUAUAUCAUGCUCCCUCAA: 0.635

Further values, each from its own experiment
PhoQ, residues 284 288 289 292 302 303 SVTLVV — fold induction (PhoP, residues 12 14 15 18 19 HLGGL (Escherichia coli, UniProt P23836); Sort-seq, refers to: YFP reporter; E. coli; PhoQ-PhoP variant library, together with: 10 µM Mg2+; reference: high Mg2+ state, higher = stronger signaling): 0.226

A few entries again (block 3):
UUUUGGUAACUAAUGUUUUAUGGCACUUAAGAAUAAUUAGCAGCGUUAAAUUUUGUUUGUAUUAAGCACUUUUAAUUUUAUCCUUCCUAAAAAUAGUUUAUUGUAUCUGA: 12.5
ACUCGUGGCCAGACGGACAGCACUCCUGGCCAGAUGGACCCACCAGUAUCAGCGAGGAGGGGCUUGUCUCCUUCAGAGUUAACAUGGAGGACGAUUGGAGAAUCUCCCUG: 0.328
UUCUAAAUAUACAAGGAAUUCUUUAAAUAGAGAAAAAGGUUAAUCCUCACUGAAACACCAGGAUGCCCACUGGAUAUACUAAUCUGAACAUCUGUAGGUAGUUUGUCAUG: 0.612
